{"data": "Assay results of several laboratories", "note": "Each line is one published result; not all experiments were run side by side."}
{"SMILES": "CC(C)Nc1ccnc(Nc2cccc(-c3cccnc3)c2)n1", "test": "item: Calcium", "system": "mouse, blood", "conditions": "intraperitoneal, 3 mg/kg", "measurement": "blood chemistry", "value": "10.1 mg/dL"}
{"SMILES": "CN1CC[C@@H](c2c(O)cc(O)c3c(=O)cc(-c4ccc(C(F)(F)F)cc4Cl)oc23)[C@@H]1CO", "test": "item: Chills", "system": "B-cell malignancies", "conditions": "oral, 100 mg, intermittent dosing", "measurement": "patients with adverse event", "value": "0%"}
{"SMILES": "COc1ncnn2ccc(-c3cnc4nc(C)n(Cc5nnc([C@@H](C)F)o5)c4c3)c12", "system": "human patients", "conditions": "oral, dose not given, all-grade adverse drug reaction", "measurement": "incidence of Dysgeusia", "value": "14.3%"}
{"SMILES": "CO[C@H]1C[C@@H]2CC[C@@H](C)[C@@](O)(O2)C(=O)C(=O)N2CCCC[C@H]2C(=O)O[C@H]([C@H](C)C[C@@H]2CC[C@@H](OC(=O)NCCOCCOCCOCCOCCOCCOCCOCCOCCC(=O)N3CCc4cc(Cn5nc(-c6ccc7oc(N)nc7c6)c6c(N)ncnc65)ccc4C3)[C@H](OC)C2)C[C@@H](O)[C@H](C)/C=C(\\C)[C@@H](O)[C@@H](OC)C(=O)[C@H](C)C[C@H](C)/C=C/C=C/C=C/1C", "test": "phase 1 dose escalation", "system": "advanced solid tumour patients", "conditions": "intravenous, 6 mg weekly, grade ≥3", "measurement": "any SAE incidence", "value": "41.7%"}
{"SMILES": "COc1cc2c(Oc3ccc4[nH]c(C)cc4c3F)ccnc2cc1OCC1(N)CC1", "system": "paediatric recurrent refractory sarcoma", "conditions": "10 mg", "measurement": "grade 3 Thrombocytopenia", "value": "0%"}
{"SMILES": "CCCSc1ccc2nc(NC(=O)OC)[nH]c2c1", "system": "mouse, blood", "conditions": "oral, 50 mg/kg", "measurement": "red cell distribution width (CV)", "value": "14.6%"}
{"SMILES": "O=C(c1ccc(F)c(F)c1Nc1ccc(I)cc1F)N1CC(O)([C@@H]2CCCCN2)C1", "system": "patients aged 6 to sample A years", "conditions": "oral, dose not given", "measurement": "adverse events", "value": "100%"}
{"SMILES": "C=CC(=O)N1CC[C@H](n2nc(C#Cc3cc(OC)cc(OC)c3)c3c(N)ncnc32)C1", "system": "human patients", "conditions": "oral, dose not given, QD regimen, adverse drug reaction, with: sevelamer hydrochloride", "measurement": "AST increased, any grade", "value": "18.2%"}
{"SMILES": "C[C@]1(CO)Cc2ncn(-c3ccc(C#N)c(Cl)c3)c2C(=O)O1", "system": "healthy human", "conditions": "all doses, European single ascending dose", "measurement": "severe TEAEs", "value": "2.1%"}
{"SMILES": "COc1ccc(C[C@@H]2NC(=O)[C@H]([C@@H](C)O)NC(=O)[C@@H]3[C@@H]4CCN3C(=O)[C@@H]3Cc5cn(c6ccc(F)cc56)CCCCCCN(Cc5ccc(cc5)CCNC(=O)[C@]5(C)CCCN5C2=O)C(=O)CCC(=O)N[C@@H](C)C(=O)N[C@H](CNC(=O)CCCCC[N+](C)(C)C)C(=O)N[C@@H](Cc2cccc(c2)CNC(=O)CO4)C(=O)N3)cc1", "test": "item: Fatigue", "system": "humans", "conditions": "concentration not given, Study-001", "measurement": "participants with adverse event", "value": "2%"}
{"SMILES": "O=S(=O)(Nc1ccccc1)c1ccc(NC(=S)Nc2ccccc2)cc1", "test": "item: TBIL", "system": "male mouse, blood", "conditions": "oral, 20 mg/kg daily, 14 days", "measurement": "blood chemistry level", "value": "0.7 mg/dL"}
{"note": "Some of these lines once more:"}
{"SMILES": "O=S(=O)(Nc1ccccc1)c1ccc(NC(=S)Nc2ccccc2)cc1", "test": "item: TBIL", "system": "male mouse, blood", "conditions": "oral, 20 mg/kg daily, 14 days", "measurement": "blood chemistry level", "value": "0.7 mg/dL"}
